Measurements collected from several papers.
Each line is one published result; not all experiments were run side by side. Values joined by “and” are separate records of one study, mostly repeats; a detail may differ. ± gives the spread as reported.

SMILES = COc1ccc2nc3cc(Cl)ccc3c(Nc3cc(CN4CCCC4)c(O)c(CN4CCCC4)c3)c2n1; test system = mouse, blood; setting = intraperitoneal, 28 mg/kg; quantity = platelet count; result = 126 10⁹/L
SMILES = CC(C)C[C@H](NC(=O)[C@H](CCCCN)NC(=O)OCC1c2ccccc2-c2ccccc21)C(=O)N[C@H](C(=O)N[C@@H](Cc1ccccc1)C(=O)N[C@@H](Cc1ccccc1)C(=O)N[C@@H](CCCCN)C(=O)NCC(=O)N[C@@H](Cc1ccccc1)C(=O)N[C@@H](C)C(=O)N[C@@H](Cc1c[nH]c2ccccc12)C(=O)N[C@@H](CC(N)=O)C(=O)N[C@H](C(=O)N[C@H]1CSSC[C@@H](C(=O)N[C@@H](Cc2c[nH]cn2)C(=O)N[C@@H](CCCNC(=N)N)C(=O)N[C@@H](CCCNC(=N)N)C(=O)N[C@@H](C)C(=O)N[C@@H](CC(N)=O)C(N)=O)NC(=O)[C@H](C(C)C)NC(=O)[C@H](CCCNC(=N)N)NC(=O)[C@H](C(C)C)NC(=O)CNC(=O)[C@H](CC(N)=O)NC(=O)[C@H](CCCNC(=N)N)NC(=O)[C@H](Cc2ccc(O)cc2)NC(=O)[C@H](C(C)C)NC1=O)C(C)C)C(C)C; test system = ICR mouse, blood; setting = intramammary, 10 mg/kg, day 5, 3 d dosing; quantity = albumin; result = 35.1 ± 1.89 g/L
SMILES = CCc1ccc(CC/C=C/c2ccc3c(c2)C(=O)CC3)cc1; test system = Sprague-Dawley rat, female, serum; setting = oral, 120 mg/kg/day, 14 days; quantity = creatinine; result = 24 µM
SMILES = CC(C)C[C@H](NC(=O)[C@H](C)NC(=O)[C@@H](NC(=O)[C@H](CCCNC(=N)N)NC(=O)[C@H](CC(C)C)NC(=O)[C@H](Cc1c[nH]c2ccccc12)NC(=O)[C@@H]1CCCN1C(=O)[C@@H](N)CCCCN)C(C)C)C(=O)N[C@@H](CS)C(=O)N1CCC[C@H]1C(=O)NCC(=O)O; test system = sheep red blood cells; setting = 256 µM, 1 h, 37 °C; quantity = hemolysis; result = 0.86% and 1.28% and 0.92%
SMILES = CCCCCCCCCCC[C@H](OC1OC[C@H](O)[C@@H](O)[C@@H]1O)[C@H](O)[C@H](O)C[C@@H]1CC(=O)N[C@H](CO)C(=O)N[C@H]([C@H](O)c2ccc(O)cc2)C(=O)N[C@H](CCN)C(=O)NCC(=O)N[C@@H](CC(N)=O)C(=O)N[C@@H](CO)C(=O)N[C@@H]([C@H](O)C(N)=O)C(=O)N1 (some centres unmarked); assay = LC-MS/MS; test system = rabbit plasma; setting = 200 ng/mL, 6 freeze-thaw cycles; scale = baseline: nominal concentration; quantity = freeze-thaw stability, deviation; result = -17.6%
SMILES = O=C(Nc1ccccc1)C1CCN(C(=O)Oc2cccnc2)CC1; test system = healthy women; setting = oral, 100 mg, 9 days; quantity = Gastrointestinal disorders adverse events; result = 30.8%
SMILES = O=C(O)CCCOc1ccc(F)cc1-c1cc(-c2ccccc2C(F)(F)F)n(-c2ccccc2)n1; test system = female Crl:CD(SD) rats; setting = intravenous, 25 µg/kg, 14 d; quantity = prothrombin time; result = 9 s and 9.8 s and 9.9 s and 9.7 s and 9.1 s
SMILES = CC(C)c1nc(N(C)S(C)(=O)=O)nc(-c2ccc(F)cc2)c1/C=C/[C@@H](O)C[C@@H](O)CC(=O)O; test system = healthy human subjects; setting = oral, dose not given, study CL-0537 safety set; quantity = incidence of metabolism disorders; result = 0%
SMILES = C[C@]1(CO)Cc2ncn(-c3ccc(C#N)c(Cl)c3)c2C(=O)O1; assay = refers to: abnormal skin odour; test system = human; setting = 10 mg multiple doses, fasted; quantity = subjects with drug-related TEAE; result = 0%
SMILES = CN1CC[C@@H](c2c(O)cc(O)c3c(=O)cc(-c4ccc(C(F)(F)F)cc4Cl)oc23)[C@@H]1CO; assay = refers to: Sepsis; test system = relapsed AML; setting = oral, 200 mg, grade 3-4, intermittent dosing; quantity = patients with adverse event; result = 20%
SMILES = COc1cccc(Oc2ccccc2NC(=O)CNC(=O)c2cccc3ccccc23)c1; test system = esterase-deficient SCID mice, male; setting = oral, 100 mg/kg/day, 14 days, toxicity study; quantity = albumin/globulin ratio; result = 1.4 and 1.3
SMILES = COc1ncnn2ccc(-c3cnc4nc(C)n(Cc5nnc([C@@H](C)F)o5)c4c3)c12; test system = human; setting = oral, dose not given, grade 4; quantity = patients with tumour lysis syndrome; result = 0%
SMILES = CN(C(=O)n1cnc(-c2ccc[n+]([O-])c2)c1)C1CCCCC1; test system = Wistar rat, pons; setting = oral, 10 mg/kg, 24 h, single dose; quantity = concentration; result = 14.4 ± 1 ng/g
SMILES = C=CC(=O)N1CC[C@H](n2nc(C#Cc3cc(OC)cc(OC)c3)c3c(N)ncnc32)C1; test system = human patients; setting = oral, dose not given, QD regimen, adverse drug reaction, added: any phosphate binder; quantity = hyperphosphatemia incidence, grade ≥3; result = 5%
SMILES = Cn1cncc1-c1c(F)cncc1NC(=O)c1c(N)nn2cc(F)cnc12; test system = human patients; setting = oral, 270 mg once daily; quantity = grade ≥3 anaemia incidence; result = 50%
SMILES = C=C(CN(C(=O)c1c(C(F)F)nn(C)c1F)C1CC1)c1ccc(Cl)cc1Cl; assay = static acute toxicity test; test system = zebrafish (Brachydanio rerio); setting = 1.20 mg a.i./L, 48 h; quantity = mortality; result = 40%
SMILES = Cc1ccc2ccccc2c1; assay = metabolism; test system = pooled human liver microsomes; setting = pH 7.4; quantity = Vmax; result = 1370 pmol/min/mg
SMILES = COc1cc2c(Oc3ccc4[nH]c(C)cc4c3F)ccnc2cc1OCC1(N)CC1; test system = paediatric recurrent refractory sarcoma; setting = 8 mg; quantity = grade 1 or 2 Hypertension; result = 0%
SMILES = N=C(N)NCCNC(=O)C1(Nc2ccccc2)CCN(Cc2ccccc2)CC1; test system = male Sprague-Dawley rats; setting = oral, 50 mg/kg; quantity = elimination rate constant; result = 0.00128 ± 0.000194 s⁻¹
SMILES = O=Cc1cn(Cc2cccc(Cl)c2)c2ccccc12; test system = F344 rat, male, liver; setting = oral, 150 mg/kg/day, 2 days; quantity = bile ducts per triad; result = 1 and 2 and 1.8
SMILES = C/C(=N\C#N)N(C)Cc1ccc(Cl)nc1; test system = test soil; setting = 0.12 mg/kg nominal, 28 days; quantity = measured soil concentration; result = 0.02 mg/kg dry soil
SMILES = Clc1cc2c(cc1Cl)Oc1c(ccc(Cl)c1Cl)O2; assay = ultrafiltration; test system = cow milk whey; setting = 200 nM nominal in whole milk; quantity = dose fraction in permeate; result = 16%
SMILES = COc1ccc(-c2c(-c3ccc(C#N)c(F)c3)nc(N3CCC(N)CC3)n(C)c2=O)cc1F; assay = refers to: Fatigue; test system = human patients; setting = oral, dose not given, dose escalation, NG; quantity = serious adverse event incidence; result = 0%
SMILES = CO[C@H]1C[C@@H]2CC[C@@H](C)[C@@](O)(O2)C(=O)C(=O)N2CCCC[C@H]2C(=O)O[C@H]([C@H](C)C[C@@H]2CC[C@@H](OC(=O)NCCOCCOCCOCCOCCOCCOCCOCCOCCC(=O)N3CCc4cc(Cn5nc(-c6ccc7oc(N)nc7c6)c6c(N)ncnc65)ccc4C3)[C@H](OC)C2)C[C@@H](O)[C@H](C)/C=C(\C)[C@@H](O)[C@@H](OC)C(=O)[C@H](C)C[C@H](C)/C=C/C=C/C=C/1C; test system = patients with advanced solid tumours; setting = intravenous, 6 mg weekly, grade 3 or higher; quantity = dysgeusia incidence; result = 0%
SMILES = Cn1c(-c2ccc(C(N)=O)cc2F)nnc1C(C)(C)Oc1c(F)cc(Cl)cc1F; test system = human; setting = oral, 3 mg, single ascending dose; quantity = subjects with drug-related TEAE; result = 0%
SMILES = C[C@@H]1OC(=O)NN=C1c1ccc(-c2ccc(F)cc2)c(C(F)(F)F)c1; assay = phase I trial, refers to: Presyncope worst grade 2; test system = human patients; setting = 5 mg once daily; quantity = patients with adverse event; result = 0%

For quick reference, copied from above:
SMILES = C[C@]1(CO)Cc2ncn(-c3ccc(C#N)c(Cl)c3)c2C(=O)O1; assay = refers to: abnormal skin odour; test system = human; setting = 10 mg multiple doses, fasted; quantity = subjects with drug-related TEAE; result = 0%
SMILES = COc1cc2c(Oc3ccc4[nH]c(C)cc4c3F)ccnc2cc1OCC1(N)CC1; test system = paediatric recurrent refractory sarcoma; setting = 8 mg; quantity = grade 1 or 2 Hypertension; result = 0%
